Measurements of several laboratories.
Compare with care: the assays were run in different laboratories.

| Structure (SMILES) | medium | pH | notes | quantity | result |
| --- | --- | --- | --- | --- | --- |
| CCn1cc(/C=C/c2ccc3ccccc3[n+]2CC)c2ccccc21 | MeOH | – | – | molar absorptivity | 28800 M⁻¹ cm⁻¹ |
| Nc1nc(-n2nnc3c2CCC2C(CO)C2CC3)nc2c1ncn2C1OC(CO)C(O)C1O (mixture of isomers) | – | – | – | molar absorption coefficient | 19100 M⁻¹ cm⁻¹ |
| CC1=[N+]2C(=C(CCl)c3ccc(C)n3[B-]2(F)F)C=C1 | DMSO | – | – | molar absorption coefficient | 48200 M⁻¹ cm⁻¹ |
| Nc1ncnc2c1nc(-n1nnc3c1CCC1C(CO)C1CC3)n2C1CC(O)C(CO)O1 (mixture of isomers) | – | – | – | molar absorption coefficient | 18200 M⁻¹ cm⁻¹ |
| CC1(C)C(/C=C/C2=C(Cl)C(=C/C=C3/N(CCCCCC(=O)O)c4ccccc4C3(C)C)/C[N+](C)(C)C2)=[N+](CCCCCC(=O)O)c2ccccc21 | 10 mM PBS | pH 7.4 | – | molar absorption coefficient | 192000 M⁻¹ cm⁻¹ |
| NCCC(=O)N1Cc2ccccc2-c2c(nnn2-c2cn(C3OC(CO)C(O)C3O)c(=O)[nH]c2=O)-c2ccccc21 (mixture of isomers) | – | – | – | molar absorption coefficient | 7300 M⁻¹ cm⁻¹ |
| Cc1ccc(C(C)C)cc1.[Cl-].[Cl][Ru+].[Ru+].c1ccc(-c2cn(CCCCOc3ccccc3-c3nc4ccccc4s3)nn2)nc1 | 10% aqueous DMSO | – | – | molar conductance | 30 S cm²/mol |
| CCCc1c(OC)c(=O)c2c(O)c(/C=C/c3ccccc3)c(OC)c3c4c(OC)c(/C=C/c5ccccc5)c(O)c5c(=O)c(OC)c(CCC)c(c1c23)c54 | – | – | at 670 nm | molar absorption coefficient | 5180 M⁻¹ cm⁻¹ |
| NCCC(=O)N1Cc2ccccc2-c2c(nnn2-c2nc3c(N)ncnc3n2C2OC(CO)C(O)C2O)-c2ccccc21 (mixture of isomers) | – | – | – | molar absorption coefficient | 16000 M⁻¹ cm⁻¹ |
| COc1c(C[C@H](C)O)c2c3c(C[C@H](C)O)c(OC)c(=O)c4c(O)cc(OC)c(c5c(OC)cc(O)c(c1=O)c52)c43 | – | – | at 670 nm | molar absorption coefficient | 120 M⁻¹ cm⁻¹ |
| [C-]#[O+].[C-]#[O+].[C-]#[O+].[C-]#[O+].[C-]#[O+].[C-]#[O+].[Cl-].[Cl-].[Re+].[Re+].c1cnc(-c2ncccn2)nc1 | 10% aqueous DMSO | – | – | molar conductivity | 140 S m²/mol |
| CCCc1c(OC)c(=O)c2c(O)c(C(=O)OC)c(OC)c3c4c(OC)c(C(=O)OC)c(O)c5c(=O)c(OC)c(CCC)c(c1c23)c54 | – | – | at 670 nm | molar absorption coefficient | 1430 M⁻¹ cm⁻¹ |
| CCn1cc(/C=C/c2sc3ccccc3[n+]2CC)c2ccccc21 | PBS | – | – | molar absorptivity | 46900 M⁻¹ cm⁻¹ |
| COc1c(C[C@@H](C)O)c2c3c(C[C@@H](C)O)c(OC)c(=O)c4c(O)cc(OC(C)C)c(c5c(OC(C)C)cc(O)c(c1=O)c52)c43 | – | – | at 670 nm | molar absorption coefficient | 150 M⁻¹ cm⁻¹ |
| CN(C)c1cccc2c(S(=O)(=O)NCCNC(=O)CCCC[C@@H]3SC[C@@H]4NC(=O)N[C@@H]43)cccc12 | PBS | – | 0.5% DMSO, at absorbance maximum | molar extinction coefficient | 3500 M⁻¹ cm⁻¹ |

Some of these lines once more:
| Structure (SMILES) | medium | pH | notes | quantity | result |
| --- | --- | --- | --- | --- | --- |
| CC1=[N+]2C(=C(CCl)c3ccc(C)n3[B-]2(F)F)C=C1 | DMSO | – | – | molar absorption coefficient | 48200 M⁻¹ cm⁻¹ |
